Published values of several laboratories.
Each numbered part is a random draw from the data of one study; scales do not carry over between parts. Changes are numbered by the printed parent chain.

Series 1 — technique: protein-binding microarray; molecule type: double-stranded DNA, one strand shown; medium: in vitro; concentration: not given; direction: higher = stronger binding; quantity: E-score
Target: Max-binding protein MNT, bHLH-zipper, MAX partner unstated (MNT, Homo sapiens, UniProt Q99583, residues 220-300)
Notes: k-mer, scored over probes, only values ≥0.25
Target sequence (chain): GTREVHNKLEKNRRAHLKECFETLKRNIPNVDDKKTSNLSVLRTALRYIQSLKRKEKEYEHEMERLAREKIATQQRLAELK
ACGGGGGG: 0.263
ACGTTTAT: 0.262
CCGCACGA: 0.313
CATGGCGG: 0.336
GTGTCAAC: 0.255
CGTGGGTA: 0.331
GCATGTGA: 0.45
AAACCACG: 0.397

Series 2 — technique: universal PBM; molecule type: double-stranded DNA, one strand shown; medium: in vitro; concentration: not given; direction: higher = stronger binding; quantity: E-score
Target: Sal-like protein 4, full length isoform B (SALL4, Homo sapiens, UniProt Q9UJQ4-2, residues 1-616)
Notes: 8-mer, flanks averaged, mean of replicates
TAAGCCAA: 0.0729
ATCACTCG: 0.0561
CTCTCAAG: 0.00382
AGATGATC: 0.0649
CAGTTGCA: -0.096
AGCGGTCC: -0.177
AGTCTGAT: 0.0516
TCCTTAGA: 0.0316

Series 3 — technique: RNA Bind-n-Seq; molecule type: RNA; medium: in vitro; concentration: 1 µM; notes: whole 134-nt RNA, ends assumed; added: 150 mM KCl; relative to: input library; direction: higher = stronger binding; quantity: log2 enrichment
Target: Ras GTPase-activating protein-binding protein 1, C-terminal RGG region (G3BP1, Homo sapiens, UniProt Q13283)
Sequence of UniProt Q13283 (whole entry, looked up): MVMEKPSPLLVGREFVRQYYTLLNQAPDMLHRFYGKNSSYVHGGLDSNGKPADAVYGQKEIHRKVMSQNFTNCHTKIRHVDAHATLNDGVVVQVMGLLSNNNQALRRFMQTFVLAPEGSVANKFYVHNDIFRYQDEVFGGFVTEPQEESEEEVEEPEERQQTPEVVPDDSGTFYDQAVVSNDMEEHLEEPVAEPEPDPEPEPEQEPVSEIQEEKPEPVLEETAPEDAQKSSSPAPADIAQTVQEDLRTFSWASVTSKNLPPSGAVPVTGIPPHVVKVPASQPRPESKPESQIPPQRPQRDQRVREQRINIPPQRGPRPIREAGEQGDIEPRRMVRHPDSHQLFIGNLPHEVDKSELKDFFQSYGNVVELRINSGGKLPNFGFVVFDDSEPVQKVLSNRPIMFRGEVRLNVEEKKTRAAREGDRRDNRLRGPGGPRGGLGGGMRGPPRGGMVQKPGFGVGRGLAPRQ
Constant ends, left off below: GGGAGUUCUACAGUCCGACGAUC … UGGAAUUCUCGGGUGUCAAGG
CACAGACAACACGCACCCACCCAGACACAGAGGGAAGGGGUUGGGAUGGGGACAGGGUGCACAGCAGGGCGGGGUAGGACCCCAGCCCCU: -0.165
AGUCCUGUGCUACACAUCGUAUGUACCGAAUCGGGUUUGGGUUUGGGAAAAAAAGGGAAAGUAUUAUGUUACGCCGUUCGGAUCUGCACU: 0.222
AGUCCUGUGCUACACAUCGUAUGUACCGAAUCGGGGUUUUUUUGGGGUGGGGAGGGGAAAGUAUUAUGUUACGCCGUUCGGAUCUGCACU: 2.12
UAACUGUAGAGGAGGAUCUGAUGGAUAUGGCAGUGGACGUGGAUUUGGGGAUGGCUAUAAUGGGUAUGGAGGAGGACCUGGAGGUGGCAA: -0.0227
GUCCUGUGCUACACAUCGUAUGUACCGAAUCGGGAAAAAAAGGGUUUUUGGGAAAGGGAAAGUAUUAUGUUACGCCGUUCGGAUCUGCAC: -0.643
UAACUUUAGGGGAGGAUCUGAUGGAUAUGGCAGUGGACGUGGAUUUGGGGAUGGCUAUAAUGGGUAUGGAGGAGGACCUGGAGGUGGCAA: -0.976
GCAGGAAGUAAAAACAAAUGGAAAUGUUUCGGAUAGUGGCAGGGGUGGGGGUUGCUAAGGAAAGGGUGGGAUGGGAGUGGGUAAAGAGUU: 1.46
CUCAAGUCCUGUGCUACACAUCGUAUGUACCGAAUCGGGGAGGAGGGGAGGGGAAAGUAUUAUGUUACGCCGUUCGGAUCUGCACUUCCA: 0.604

Single results of other studies
Parent: viral docking peptide; KKVKRRLFETREL; partner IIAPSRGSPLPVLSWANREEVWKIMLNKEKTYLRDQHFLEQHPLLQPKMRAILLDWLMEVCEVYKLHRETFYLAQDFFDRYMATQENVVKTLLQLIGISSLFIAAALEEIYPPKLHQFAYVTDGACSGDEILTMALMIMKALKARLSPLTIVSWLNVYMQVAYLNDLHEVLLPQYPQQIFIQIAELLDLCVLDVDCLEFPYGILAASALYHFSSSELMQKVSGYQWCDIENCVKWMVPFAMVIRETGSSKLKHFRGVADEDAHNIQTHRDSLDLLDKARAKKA
L13A  normalised enrichment score (CCNE1, cyclin fold, Cln2 fusion (human); yeast growth competition, sequencing; yeast; strong parent motif; relative to: not given, higher = stronger binding): 5.65

For quick reference, copied from above (series 3):
UAACUGUAGAGGAGGAUCUGAUGGAUAUGGCAGUGGACGUGGAUUUGGGGAUGGCUAUAAUGGGUAUGGAGGAGGACCUGGAGGUGGCAA: -0.0227
GUCCUGUGCUACACAUCGUAUGUACCGAAUCGGGAAAAAAAGGGUUUUUGGGAAAGGGAAAGUAUUAUGUUACGCCGUUCGGAUCUGCAC: -0.643
UAACUUUAGGGGAGGAUCUGAUGGAUAUGGCAGUGGACGUGGAUUUGGGGAUGGCUAUAAUGGGUAUGGAGGAGGACCUGGAGGUGGCAA: -0.976
